# Results pooled from the literature.
# A part holds a random share of what one study measured.
# UniProt Q06187, sequence (whole entry, looked up): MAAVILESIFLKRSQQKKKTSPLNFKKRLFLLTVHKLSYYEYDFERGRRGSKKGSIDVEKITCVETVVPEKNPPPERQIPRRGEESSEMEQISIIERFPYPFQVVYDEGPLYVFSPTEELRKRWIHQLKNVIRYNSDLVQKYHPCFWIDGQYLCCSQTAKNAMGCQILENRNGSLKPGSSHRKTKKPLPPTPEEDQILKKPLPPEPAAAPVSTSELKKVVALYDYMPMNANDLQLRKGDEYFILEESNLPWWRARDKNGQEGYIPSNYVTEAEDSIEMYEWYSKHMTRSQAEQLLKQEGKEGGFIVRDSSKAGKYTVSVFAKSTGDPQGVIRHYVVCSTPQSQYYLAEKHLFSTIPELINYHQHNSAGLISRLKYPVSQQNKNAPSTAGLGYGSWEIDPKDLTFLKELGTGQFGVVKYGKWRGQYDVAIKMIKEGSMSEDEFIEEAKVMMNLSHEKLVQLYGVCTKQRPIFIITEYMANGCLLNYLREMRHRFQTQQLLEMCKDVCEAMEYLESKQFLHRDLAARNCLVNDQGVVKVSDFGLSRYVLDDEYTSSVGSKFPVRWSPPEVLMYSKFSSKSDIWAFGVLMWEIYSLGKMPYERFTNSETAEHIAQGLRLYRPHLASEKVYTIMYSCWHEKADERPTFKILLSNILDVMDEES
# UniProt Q05655, sequence (whole entry, looked up): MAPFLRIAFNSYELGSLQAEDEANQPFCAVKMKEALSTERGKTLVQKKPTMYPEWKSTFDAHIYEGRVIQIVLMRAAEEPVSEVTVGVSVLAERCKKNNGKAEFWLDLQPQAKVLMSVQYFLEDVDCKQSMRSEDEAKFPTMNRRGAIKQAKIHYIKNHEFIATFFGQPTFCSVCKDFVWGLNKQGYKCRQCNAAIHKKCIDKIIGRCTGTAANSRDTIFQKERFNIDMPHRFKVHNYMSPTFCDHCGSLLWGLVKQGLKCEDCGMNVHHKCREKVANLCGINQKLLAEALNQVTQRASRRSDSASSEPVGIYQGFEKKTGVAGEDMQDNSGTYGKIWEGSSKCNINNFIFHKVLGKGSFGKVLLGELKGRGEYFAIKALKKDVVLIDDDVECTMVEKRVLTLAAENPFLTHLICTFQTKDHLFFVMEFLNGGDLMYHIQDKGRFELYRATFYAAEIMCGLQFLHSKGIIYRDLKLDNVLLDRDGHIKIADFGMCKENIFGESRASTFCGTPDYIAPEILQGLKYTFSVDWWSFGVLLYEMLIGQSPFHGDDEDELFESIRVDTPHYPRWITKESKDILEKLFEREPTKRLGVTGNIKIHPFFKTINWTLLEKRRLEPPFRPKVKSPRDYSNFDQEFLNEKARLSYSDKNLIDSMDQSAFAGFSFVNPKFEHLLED
# UniProt Q9NYY3, sequence (whole entry, looked up): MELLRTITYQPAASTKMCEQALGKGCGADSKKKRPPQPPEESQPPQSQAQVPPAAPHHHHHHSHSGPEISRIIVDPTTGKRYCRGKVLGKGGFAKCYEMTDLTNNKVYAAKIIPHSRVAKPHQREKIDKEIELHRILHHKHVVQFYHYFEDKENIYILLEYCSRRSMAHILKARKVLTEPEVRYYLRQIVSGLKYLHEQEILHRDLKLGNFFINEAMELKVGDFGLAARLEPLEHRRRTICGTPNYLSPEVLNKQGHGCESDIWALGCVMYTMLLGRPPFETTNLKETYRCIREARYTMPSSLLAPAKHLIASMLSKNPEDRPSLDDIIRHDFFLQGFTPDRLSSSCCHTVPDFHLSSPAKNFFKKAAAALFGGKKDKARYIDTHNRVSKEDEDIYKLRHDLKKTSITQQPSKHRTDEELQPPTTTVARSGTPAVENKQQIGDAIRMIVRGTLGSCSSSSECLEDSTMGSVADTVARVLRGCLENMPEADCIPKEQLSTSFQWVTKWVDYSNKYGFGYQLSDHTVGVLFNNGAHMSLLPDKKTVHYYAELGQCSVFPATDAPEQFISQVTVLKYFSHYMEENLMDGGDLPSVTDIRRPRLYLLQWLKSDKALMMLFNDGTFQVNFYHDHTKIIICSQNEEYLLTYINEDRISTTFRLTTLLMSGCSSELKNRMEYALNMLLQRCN
# UniProt P54756, sequence (whole entry, looked up): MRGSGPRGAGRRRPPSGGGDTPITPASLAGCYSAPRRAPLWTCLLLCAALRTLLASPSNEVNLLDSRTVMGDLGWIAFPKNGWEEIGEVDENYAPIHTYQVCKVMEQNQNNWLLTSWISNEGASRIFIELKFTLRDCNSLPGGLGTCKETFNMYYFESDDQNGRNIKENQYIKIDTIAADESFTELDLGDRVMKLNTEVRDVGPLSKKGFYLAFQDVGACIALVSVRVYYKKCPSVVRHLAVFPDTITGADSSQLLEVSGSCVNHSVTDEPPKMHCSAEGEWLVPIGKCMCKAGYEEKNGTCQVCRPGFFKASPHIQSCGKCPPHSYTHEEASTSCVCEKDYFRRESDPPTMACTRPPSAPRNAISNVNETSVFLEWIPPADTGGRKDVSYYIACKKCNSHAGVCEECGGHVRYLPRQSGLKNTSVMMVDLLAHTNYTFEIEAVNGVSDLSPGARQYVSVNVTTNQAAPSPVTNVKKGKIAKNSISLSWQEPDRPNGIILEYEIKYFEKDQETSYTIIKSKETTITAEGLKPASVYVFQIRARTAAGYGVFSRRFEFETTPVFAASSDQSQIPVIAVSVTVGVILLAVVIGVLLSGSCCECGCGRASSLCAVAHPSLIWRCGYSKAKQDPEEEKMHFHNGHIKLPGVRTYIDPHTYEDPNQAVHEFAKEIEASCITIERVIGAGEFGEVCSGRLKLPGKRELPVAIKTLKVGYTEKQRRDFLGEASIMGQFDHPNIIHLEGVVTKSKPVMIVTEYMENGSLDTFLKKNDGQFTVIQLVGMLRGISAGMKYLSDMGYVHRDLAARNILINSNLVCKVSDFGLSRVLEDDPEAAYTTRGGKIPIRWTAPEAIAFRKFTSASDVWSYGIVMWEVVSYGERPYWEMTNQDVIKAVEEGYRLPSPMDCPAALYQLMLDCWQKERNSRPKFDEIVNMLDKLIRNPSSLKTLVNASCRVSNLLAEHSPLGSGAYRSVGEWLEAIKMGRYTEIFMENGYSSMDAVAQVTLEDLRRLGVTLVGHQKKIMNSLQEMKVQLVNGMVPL
# UniProt Q86Y07, sequence (whole entry, looked up): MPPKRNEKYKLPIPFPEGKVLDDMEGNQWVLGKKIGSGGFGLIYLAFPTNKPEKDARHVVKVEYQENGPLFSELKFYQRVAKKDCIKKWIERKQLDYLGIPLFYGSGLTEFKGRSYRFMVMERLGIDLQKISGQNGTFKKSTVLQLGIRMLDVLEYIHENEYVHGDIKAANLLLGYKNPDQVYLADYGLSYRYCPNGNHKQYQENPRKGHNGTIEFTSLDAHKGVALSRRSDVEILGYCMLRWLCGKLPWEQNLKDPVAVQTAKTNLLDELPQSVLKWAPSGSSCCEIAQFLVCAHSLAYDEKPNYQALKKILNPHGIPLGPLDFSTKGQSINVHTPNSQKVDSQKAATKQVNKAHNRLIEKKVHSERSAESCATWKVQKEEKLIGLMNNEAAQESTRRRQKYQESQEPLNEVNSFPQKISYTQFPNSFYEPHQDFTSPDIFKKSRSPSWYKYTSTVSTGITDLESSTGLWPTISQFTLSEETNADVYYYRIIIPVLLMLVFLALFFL
# UniProt Q02750, sequence (whole entry, looked up): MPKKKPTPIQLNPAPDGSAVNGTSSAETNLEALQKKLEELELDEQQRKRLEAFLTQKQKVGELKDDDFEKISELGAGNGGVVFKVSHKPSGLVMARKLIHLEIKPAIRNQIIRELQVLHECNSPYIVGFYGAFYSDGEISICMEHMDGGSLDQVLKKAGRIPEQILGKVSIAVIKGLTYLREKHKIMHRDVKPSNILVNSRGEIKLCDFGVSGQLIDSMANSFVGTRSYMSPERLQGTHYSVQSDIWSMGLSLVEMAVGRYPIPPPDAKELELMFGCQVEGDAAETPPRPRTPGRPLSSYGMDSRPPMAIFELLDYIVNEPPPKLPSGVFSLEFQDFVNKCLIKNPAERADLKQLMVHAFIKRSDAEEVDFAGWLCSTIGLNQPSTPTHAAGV
# UniProt Q86UE8, sequence (whole entry, looked up): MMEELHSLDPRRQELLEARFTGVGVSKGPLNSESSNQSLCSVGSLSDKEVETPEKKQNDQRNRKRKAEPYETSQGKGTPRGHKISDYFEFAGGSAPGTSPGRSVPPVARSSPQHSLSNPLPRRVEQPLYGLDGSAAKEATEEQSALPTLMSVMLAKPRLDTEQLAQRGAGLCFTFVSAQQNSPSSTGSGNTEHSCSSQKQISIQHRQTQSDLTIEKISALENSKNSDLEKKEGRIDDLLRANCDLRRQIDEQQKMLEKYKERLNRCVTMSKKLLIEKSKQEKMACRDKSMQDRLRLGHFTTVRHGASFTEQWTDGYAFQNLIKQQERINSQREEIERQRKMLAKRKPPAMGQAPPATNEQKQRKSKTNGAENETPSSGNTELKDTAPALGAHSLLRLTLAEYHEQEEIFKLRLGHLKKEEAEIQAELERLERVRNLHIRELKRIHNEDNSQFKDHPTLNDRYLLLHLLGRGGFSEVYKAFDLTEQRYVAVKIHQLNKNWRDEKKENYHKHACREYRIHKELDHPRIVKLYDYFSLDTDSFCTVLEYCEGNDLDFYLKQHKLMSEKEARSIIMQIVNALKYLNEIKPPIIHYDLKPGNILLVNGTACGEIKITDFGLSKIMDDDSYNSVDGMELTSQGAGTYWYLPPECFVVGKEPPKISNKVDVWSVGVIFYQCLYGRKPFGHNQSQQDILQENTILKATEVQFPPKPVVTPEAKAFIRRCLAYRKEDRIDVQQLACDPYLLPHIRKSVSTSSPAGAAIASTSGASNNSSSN

# Set 1
# Structure (SMILES): O=C(NCc1ncc(C(F)(F)F)cc1Cl)c1ccc2c(c1)C1(CCS(=O)(=O)CC1)[C@H](C1CC1)N2S(=O)(=O)c1ccc(F)cc1
# Concentration: 1 µM
target,observed,technique,remaining binding [%]
"MELK (Homo sapiens, UniProt Q14680)",cell-free assay,competition with immobilised ligand,54
"TYRO3 (Homo sapiens, UniProt Q06418)",cell-free assay,competition with immobilised ligand,100
"FES (Homo sapiens, UniProt P07332)",cell-free assay,competition with immobilised ligand,100
"PAK1 (Homo sapiens, UniProt Q13153)",cell-free assay,competition with immobilised ligand,100
"Tyrosine-protein kinase ABL1, phosphorylated (ABL1, Homo sapiens, UniProt P00519, F317I)",binding,,83
"PRKCD (Homo sapiens, UniProt Q05655)",cell-free assay,competition with immobilised ligand,100
"SIK3 (Homo sapiens, UniProt Q9Y2K2)",cell-free assay,competition with immobilised ligand,100
"ACVR1 (Homo sapiens, UniProt Q04771)",cell-free assay,competition with immobilised ligand,100
"GRK1 (Homo sapiens, UniProt Q15835)",cell-free assay,competition with immobilised ligand,80
"MAP3K5 (Homo sapiens, UniProt Q99683)",cell-free assay,competition with immobilised ligand,100
"TLK2 (Homo sapiens, UniProt Q86UE8)",cell-free assay,competition with immobilised ligand,100

# Set 2
# SMILES: Cc1sc(C(=O)NC2COC2)cc1-n1cc(NC(=O)Nc2c(F)cccc2Cl)cn1
# Observed: enzyme activity
# Concentration: 10 µM
# Relative to: untreated control
target,remaining activity
"NTRK1 (Homo sapiens, UniProt P04629)",76.8%
"BTK (Homo sapiens, UniProt Q06187)",87%
"IKBKB (Homo sapiens, UniProt O14920)",82.1%
"CAMK2A (Homo sapiens, UniProt Q9UQM7)",99%
"STK10 (Homo sapiens, UniProt O94804)",95.8%
"HIPK4 (Homo sapiens, UniProt Q8NE63)",97.4%
"MAPK3 (Homo sapiens, UniProt P27361)",107%
"CHUK (Homo sapiens, UniProt O15111)",93.7%
"ALK (Homo sapiens, UniProt Q9UM73)",99.9%
"MAP2K1 (Homo sapiens, UniProt Q02750)",93%
"VRK2 (Homo sapiens, UniProt Q86Y07)",100%

# Set 3
# SMILES: O=C1Nc2ccccc2/C1=C\c1c(Cl)[nH]c2ccccc12
# Observed: enzyme activity
# Action: inhibitor
# Concentration: 0.5 µM
# Relative to: control
target,remaining activity [%]
"WNK2 (Homo sapiens, UniProt Q9Y3S1)",93.4
"EPHA5 (Homo sapiens, UniProt P54756)",83.4
"LYN (Homo sapiens, UniProt P07948)",99.7
"CHEK1 (Homo sapiens, UniProt O14757)",93.7
"NEK4 (Homo sapiens, UniProt P51957)",97.7
"CSNK2A1 (Homo sapiens, UniProt P68400)",89.4
"MAPK13 (Homo sapiens, UniProt O15264)",98.9
"MAP2K6 (Homo sapiens, UniProt P52564)",93.4
"PRKG1 (Homo sapiens, UniProt Q13976)",92.5
"PRKCD (Homo sapiens, UniProt Q05655)",88.4
"PRKCI (Homo sapiens, UniProt P41743)",99.2
"CSNK1A1 (Homo sapiens, UniProt P48729)",102
"KIT (Homo sapiens, UniProt P10721)",90.2
"AKT3 (Homo sapiens, UniProt Q9Y243)",93.6
"MAP4K2 (Homo sapiens, UniProt Q12851)",97.9
"MAP3K10 (Homo sapiens, UniProt Q02779)",94.7
"PLK2 (Homo sapiens, UniProt Q9NYY3)",98.2
"LRRK2 (Homo sapiens, UniProt Q5S007)",102
"MKNK2 (Homo sapiens, UniProt Q9HBH9)",93.5
"IRAK4 (Homo sapiens, UniProt Q9NWZ3)",102
"MAPK12 (Homo sapiens, UniProt P53778)",93
"Cyclin-dependent kinase 9, with cyclin T1 (CDK9, Homo sapiens, UniProt P50750)",98.4
"BTK (Homo sapiens, UniProt Q06187)",94.6

# Set 4
# Target: Bromodomain-containing protein 4, BD1 (BRD4, Homo sapiens, UniProt O60885)
# Observed: acetyl-histone H4 peptide binding
# Technique: AlphaScreen displacement
# Concentration: 50 µM
SMILES,inhibition [%]
Fc1cccc(-c2nnc3ccc(SCc4cccnc4)nn23)c1,-5.1
Cc1ccnc(Nc2nc(-c3sc(N)nc3C)cs2)c1,88.8
COC(=O)CCNc1ccc(O)c2c1C(=O)c1ccccc1C2=O,86.3
CC(=O)O.Cn1cc(C2=C(c3cn(CCCN)c4ccccc34)C(=O)NC2=O)c2ccccc21,93.8
c1coc(-c2nnc(CSc3nnc(NC4CC4)s3)o2)c1,11.7
CCCNC(=O)Nc1ccc(Oc2ncnc3cc(OC)c(OC)cc23)cc1Cl,9.75
CC(C)n1cnc2c(Nc3cccc(Cl)c3)nc(NCCO)nc21,43.2
O=C(CSc1ccc2nnc(-c3cccc(F)c3)n2n1)Nc1nccs1,7.5
COc1cccc(NC(=O)CSc2ccc3nnc(-c4ccc(Cl)cc4)n3n2)c1,10
CC(CCl)=C(C#N)c1nc2ccccc2s1,21.6
CCOC(=O)c1cccc(Nc2nc(N)nc3[nH]cnc23)c1,16.6
Clc1ccc(Nc2nccn3c(-c4ccsc4)cnc23)cc1,42.3
N#Cc1c(NC(=O)c2cccc3ccccc23)sc2c1CCCC2,16.9
Cc1c(-c2ccccc2)sc2nc[nH]c(=O)c12,7.8
O=c1ccc2ccc(O)c(O)c2o1,25.9
CC(Nc1nccnc1-c1ccccc1Cl)c1ccccc1 (centres unmarked),20.9
CCOC(=O)CSc1ccc2nnc(-c3ccc(OC)c(OC)c3)n2n1,28.6

# For quick reference, copied from above (set 4):
SMILES,inhibition [%]
Clc1ccc(Nc2nccn3c(-c4ccsc4)cnc23)cc1,42.3
N#Cc1c(NC(=O)c2cccc3ccccc23)sc2c1CCCC2,16.9
Cc1c(-c2ccccc2)sc2nc[nH]c(=O)c12,7.8
O=c1ccc2ccc(O)c(O)c2o1,25.9
CC(Nc1nccnc1-c1ccccc1Cl)c1ccccc1 (centres unmarked),20.9
CCOC(=O)CSc1ccc2nnc(-c3ccc(OC)c(OC)c3)n2n1,28.6
